Measured values from different studies.
Compare with care: the assays were run in different laboratories. Numbers after ± are the reported error.
Rac GTPase-activating protein 1: Rac GTPase-activating protein 1 (Homo sapiens, UniProt Q9H0H5)
GABBR1: Gamma-aminobutyric acid type B receptor subunit 1 (GABBR1, Homo sapiens, UniProt Q9UBS5)
F12: Coagulation factor XII (F12, Homo sapiens, UniProt P00748)
Oprk1: Kappa-type opioid receptor (Oprk1, Rattus norvegicus, UniProt P34975)
USP14: Ubiquitin carboxyl-terminal hydrolase 14 (USP14, Homo sapiens, UniProt P54578)
AVPR1A: Vasopressin V1a receptor (AVPR1A, Homo sapiens, UniProt P37288)
ELANE: Neutrophil elastase (ELANE, Homo sapiens, UniProt P08246)

CC(=O)C12NC(C)(C)CC1(C)C(=O)C1=C2c2c(c3c4n2C(C)(C)CC2=C4C4(CC(C)(C)NC(C)(C4)C2=O)CC3(C)C)C(=O)C(C)(C)N1 (single isomer, unassigned; (+))  inhibition (SCN10A (Homo sapiens, UniProt Q9Y5Y9); sodium current, antagonist, whole-cell patch clamp; HEK293T cells; 10 µM, resting state (TP1)): 23.87 ± 0.01%
O=C(O)C1Nc2ccc(Br)cc2C2C=CCC12 (stereo not drawn)  inhibition (Rac GTPase-activating protein 1; enzyme activity, inhibitor, ADP detection; 20 µM): 36.3%
O=C(Nc1ccc(C(F)F)cc1)[C@H](CC1CCCCC1)Nc1nn2c(=O)ccnc2s1  inhibition (Low molecular weight phosphotyrosine protein phosphatase, isoform A (ACP1, Homo sapiens, UniProt P24666); enzyme activity, inhibitor; 10 µM, LMPTP-A isoform): 4%
O=c1ccsn1Cc1ccccc1  inhibition (Rac GTPase-activating protein 1; enzyme activity, inhibitor, ADP detection; 20 µM): 78.5%
Cn1ccc2cc(-n3c(=O)[nH]c4sc5c(c4c3=O)CCCC5)ccc21  inhibition (GABBR1; radioligand binding; 10 µM): -11%
C=CC(=O)N1Cc2nc(-c3cc(-c4cc(Cl)cnc4Cl)c(F)cc3F)n(-c3ccncn3)c2C1  inhibition (MASTL (Homo sapiens, UniProt Q96GX5); cell-free assay, inhibitor; 1 µM): 4.6%
Cc1ccc(CNC(=O)[C@H](CCc2ccccc2)NC(=O)[C@H](CC(=O)NCC(C)(C)C)NC(=O)CCc2cccc(F)c2)cc1  inhibition (F12; enzyme activity, inhibitor; 100 µM): 32%
CO[C@@H](C)c1c(NC(=O)Nc2cnc(-n3nccn3)c(C(F)(F)F)c2)cnc2sc(C)nc12  inhibition (Oprk1; ligand displacement, radioligand; 10 µM): -14.6%
Brc1ccc(CNc2ccc3cn[nH]c3c2)s1  inhibition (USP14; enzyme activity, inhibitor; 17 µM): 75%
CCn1cc(C(=O)O)c(=O)c2c(N)c(F)c(NC3CCCCC3)cc21  inhibition (5'-AMP-activated protein kinase catalytic subunit alpha-1, with beta2, gamma2 (PRKAA1, Homo sapiens, UniProt Q13131); kinase activity; 0.1 µM, added: ATP at Km): -1%
Cn1c(CNc2ccccc2Cl)nc2ccccc21  inhibition (Rac GTPase-activating protein 1; enzyme activity, inhibitor, ADP detection; 10 µM): 71.5%
COc1ncc2nc(C)n(Cc3ncc(S(N)(=O)=O)cc3F)c2c1-c1ccccc1  inhibition (AVPR1A; antagonist, cell-based; 10 µM): -8.34%
C[Si](C)(C)C[C@@H](CN)CC(=O)O  inhibition (glycine transporter, mouse; binding, radioligand binding; 75 µM, added: [3H]glycine): -3%
Cc1ccc(CNC(=O)C(CCc2ccccc2)NC(=O)C(NC(=O)c2ccc(OCc3ccc(C(C)(C)C)cc3)cc2)C(C)O)cc1 (stereo not drawn)  inhibition (ELANE; enzyme activity, inhibitor; 100 µM): -11%
N=C(N)NCCCC(NC(=O)C(CC(=O)NO)Cc1ccc2ccccc2c1)C(=O)NC(Cc1c[nH]c2ccccc12)C(=O)NC(CCC(=O)O)C(N)=O (stereo not drawn)  inhibition (Matrix metalloproteinase-15 (Homo sapiens, UniProt P51511); 1 µM): 9%
CC1=C(C)C(=O)C(NCc2ccco2)=CC1=O  inhibition (USP14; enzyme activity, inhibitor; 17 µM): 44%
Nc1ccc2c(c1)OC1(CCCCC1)O2  inhibition (Rac GTPase-activating protein 1; enzyme activity, inhibitor, ADP detection; 20 µM): 47.3%
O=C1NNC(c2ccccc2)=N/C1=C\c1ccco1  inhibition (USP14; enzyme activity, inhibitor; 17 µM): 49%
CN1CCN(Cc2ccc(-c3ccc(CO[C@H]4CCC[C@@H]4NC(=O)c4cc(-c5cnn(C)c5)cnc4N)cc3)cc2)CC1  inhibition (5'-AMP-activated protein kinase catalytic subunit alpha-1, with beta2, gamma1 (PRKAA1, Homo sapiens, UniProt Q13131); SelectScreen kinase profiling; 0.1 µM): 0%
O=C(Nc1ccc(N2CCOCC2)c2nonc12)c1cc(-c2cccnc2)nc2ccc(Cl)cc12  inhibition (USP14; enzyme activity, inhibitor; 17 µM): 69%
COc1ccc(S(=O)(=O)N2CCc3ccccc3C2)cc1N1CCN(C(=O)c2ccc(F)cc2C(F)(F)F)CC1  inhibition (Oprk1; cell-free assay; 1 µM): 0.8%
CCOC(=O)c1cnc2c(C)cc(C)cc2c1NCCCN(C)C  inhibition (Rac GTPase-activating protein 1; GAP activity, malachite green phosphate; concentration not given, orthogonal retest): 59.2%
Cc1ccc(CN(C)C(=O)C(CCc2ccccc2)NC(=O)C(NC(=O)c2ccc(OCc3ccccc3)cc2)C(C)O)cc1 (stereo not drawn)  inhibition (ELANE; enzyme activity, inhibitor; 100 µM): 0%
O=S(=O)(Nc1nnc(Cc2ccccc2)s1)c1ccc(Br)cc1  inhibition (srtA (Staphylococcus aureus, UniProt Q2FV99); enzyme activity, inhibitor; 200 µM): 56.3%
Cc1[nH]nc2c1N=C(c1ccccc1Cl)c1cnc(N3CCOCC3)cc1N2  inhibition (SIGMAR1 (Homo sapiens, UniProt Q99720); cell-free assay; 10 µM): -4%
COc1cc(OC)c(F)c(/C=C/c2cnc3ccn(S(=O)(=O)c4cn(CCF)cn4)c3n2)c1F  inhibition (PDGFRA (Homo sapiens, UniProt P16234); 1000 nM): 0%
CN(C)C/C=C/C(=O)Nc1ccc2nc(NCCCCCN(C)C)nc(NCCCCCCN(C)C)c2c1  inhibition (SMYD3 (Homo sapiens, UniProt Q9H7B4); enzyme activity, inhibitor, radiometric; 10 µM): 2%
Cc1cc(N2CCOCC2)nc2cc(Cl)ccc12  inhibition (Rac GTPase-activating protein 1; enzyme activity, inhibitor, ADP detection; 10 µM): 53.4%
Cc1cccc(O[C@H]2CCC[C@@H](C(C)CNCc3ccncc3)C2)c1 (relative stereo)  inhibition (RPS6KB2 (Homo sapiens, UniProt Q9UBS0); kinome profiling; 10 µM): -5%
CCOC(=O)N1CCN(C(=S)Nc2ccc3nsnc3c2)CC1  inhibition (USP14; enzyme activity, inhibitor; 17 µM): 66%
COCC(=O)N1CCc2cc(-c3csc(NC(=O)c4cc(OC)cc(OC)c4)n3)ccc21  inhibition (GABBR1; binding, radioligand binding; human; 10 µM): -12%
CCn1cc(-c2cccc(C(F)(F)F)c2)c2sc(C(=N)NC3CCS(=O)(=O)CC3)cc2c1=O  inhibition (EP300 (Homo sapiens, UniProt Q09472); 1 µM): 24%
O=C(NN=C1CC(=NNC(=O)c2ccncc2)c2ccccc21)c1ccncc1  inhibition (USP14; enzyme activity, inhibitor; 17 µM): 94%
COc1ccc2c(c1)CCc1sc(N)nc1-2  inhibition (Rac GTPase-activating protein 1; enzyme activity, inhibitor, ADP detection; 20 µM): 91.4%
C=CCNC(=O)[C@H](CCc1ccccc1)NC(=O)[C@H](CC(=O)NCC(C)(C)C)NC(=O)CCc1ccccc1  inhibition (ELANE; enzyme activity, inhibitor; 100 µM): 2%
O=C1c2sc(-c3ccc(N4CCC(F)C4)nc3F)nc2CCN1c1cccnc1 (stereo not drawn)  inhibition (AVPR1A; ligand displacement, radioligand; 1 µM): -14%
O=C(O)CN1C(=O)Cc2ccccc2C1=O  inhibition (USP14; enzyme activity, inhibitor; 17 µM): 18%
Cc1nc2c(F)cc(-c3nc(Nc4ccc(CNC(=O)CCCCCCC(=O)NO)cc4)ncc3F)cc2n1C(C)C  inhibition (Phosphatidylinositol 4,5-bisphosphate 3-kinase catalytic subunit alpha isoform, with p65 alpha (PIK3CA, Homo sapiens, UniProt P42336); enzyme activity; 1 µM, p110α/p65α)(h human): 37%
Cc1cc(O)c2c(c1O)C(=O)c1cc(O)cc(O)c1C2=O  inhibition (AVPR1A; calcium mobilization, antagonist, fluorimetry; 50 µM, added: 10 nM vasopressin): 50 ± 2.12%
CCOC(=O)C1(C)C(Br)=C(Cl)C(=O)N1c1ccc(F)cc1 (stereo not drawn)  inhibition (Rac GTPase-activating protein 1; GAP activity, malachite green phosphate; concentration not given, orthogonal retest): 66.7%
Cc1cc(C)cc(COc2cc3c(cc2OCc2cc(C)cc(C)c2)[C@@H]2C[C@](O)(Cc4cn(Cc5ccc(F)cc5)nn4)C[C@H](C)N2CC3)c1 (single isomer, unassigned)  inhibition (Rab GDP dissociation inhibitor beta, with Rab1A (Homo sapiens, UniProt P50395); GDI2-Rab1A interaction, NanoLuc complementation; 6.25 µM): 90.3%
Cc1ccc(CNC(=O)[C@H](CCc2ccccc2)NC(=O)[C@H](CCc2ccccc2)NC(=O)Cc2cccc(Oc3ccccc3)c2)cc1  inhibition (F12; enzyme activity, inhibitor; 100 µM): 37%
C[Si]1(C[C@H](CN)CC(=O)O)CCCC1  inhibition (GABAA receptor, rat; binding, radioligand binding; 70 µM, added: [3H]muscimol): 3%
N#C/C(=C\c1ccc(N2CCOCC2)o1)C(=O)NCC1CCCO1 (stereo not drawn)  inhibition (USP14; enzyme activity, inhibitor; 17 µM): 17%
CN(Cc1ccc(/C=C/C(=O)NO)cc1)CC12CC3CC(CC(C3)C1)C2  inhibition (human 5-HT1A receptor; agonist radioligand binding; 0.05 µM): 2%

For quick reference, copied from above:
Cc1cccc(O[C@H]2CCC[C@@H](C(C)CNCc3ccncc3)C2)c1 (relative stereo)  inhibition (RPS6KB2 (Homo sapiens, UniProt Q9UBS0); kinome profiling; 10 µM): -5%
Cc1cc(N2CCOCC2)nc2cc(Cl)ccc12  inhibition (Rac GTPase-activating protein 1; enzyme activity, inhibitor, ADP detection; 10 µM): 53.4%
Cc1ccc(CNC(=O)C(CCc2ccccc2)NC(=O)C(NC(=O)c2ccc(OCc3ccc(C(C)(C)C)cc3)cc2)C(C)O)cc1 (stereo not drawn)  inhibition (ELANE; enzyme activity, inhibitor; 100 µM): -11%
